# Assay results gathered from unrelated publications.
# Every numbered part comes from another study and shows a few of its results, in no order. Positions count from the first letter of the parent shown.

# Series 1 — method: RNA Bind-n-Seq; form: RNA; medium: in vitro; tested at: 200 nM; notes: whole 134-nt RNA, ends assumed; added: 150 mM KCl; reference: input library; reading: higher = stronger binding
# Target: Fragile X messenger ribonucleoprotein 1, C-terminal low-complexity region (Fmr1, Mus musculus, UniProt P35922)
Strand,log2 enrichment
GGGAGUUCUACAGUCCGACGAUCUGUCCAGCUCUGAAGGGCAAAGUGCAGAAGAUCCUAAUCUGGAAGUGGGGUCAGCCACCAUCUCCCACACCAGUGCCUCGGCCUCCAGAUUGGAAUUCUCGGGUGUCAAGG,-0.064
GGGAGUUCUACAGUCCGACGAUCCCUGUGCUACACAUCGUAUGUACCGAAUCGGGGAAAAAGGGGUUUUUGGGGUUUUUGGGGAAAGUAUUAUGUUACGCCGUUCGGAUCUGCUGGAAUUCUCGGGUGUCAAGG,0.522
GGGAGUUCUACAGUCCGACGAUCUGGCCCUGGUGGCAUGCGGGGAGGAAGAGGUGGCCUCAUGGAUCGUGGUGGUCCCGGUGGAAUGUUCAGAGGUGGCAGUGGUGGAGACAGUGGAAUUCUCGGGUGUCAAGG,-0.0426
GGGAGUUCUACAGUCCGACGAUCUCCUCAAGUCCUGUGCUACACAUCGUAUGUACCGAAUCGGCGGCGGGCGGGAAAGUAUUAUGUUACGCCGUUCGGAUCUGCACUUCCAGCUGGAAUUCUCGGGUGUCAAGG,-0.0232
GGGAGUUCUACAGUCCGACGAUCCAAGUCCUGUGCUACACAUCGUAUGUACCGAAUCGGGGUUGGGUUGGGGUUGGGGAAAGUAUUAUGUUACGCCGUUCGGAUCUGCACUUCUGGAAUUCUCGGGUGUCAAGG,1.2
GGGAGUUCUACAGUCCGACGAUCGUCCUGUGCUACACAUCGUAUGUACCGAAUCGGGGAAAGGGGUUUUUGGGGAAAGGGGAAAGUAUUAUGUUACGCCGUUCGGAUCUGCACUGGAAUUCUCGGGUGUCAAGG,0.516
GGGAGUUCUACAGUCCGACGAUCAGUCCUGUGCUACACAUCGUAUGUACCGAAUCGGGUUUUUGGGUUUUUGGGUUUGGGAAAGUAUUAUGUUACGCCGUUCGGAUCUGCACUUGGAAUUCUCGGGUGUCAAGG,0.484
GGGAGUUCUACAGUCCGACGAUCAAGUCCUGUGCUACACAUCGUAUGUACCGAAUCGGAAAGGUUUUUGGUUUUUUUGGAAAGUAUUAUGUUACGCCGUUCGGAUCUGCACUUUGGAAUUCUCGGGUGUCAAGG,-1.12
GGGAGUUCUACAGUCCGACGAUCUCCUGUGCUACACAUCGUAUGUACCGAAUCGGGGUUUGGGGAAAAAAAGGGGAAAGGGGAAAGUAUUAUGUUACGCCGUUCGGAUCUGCAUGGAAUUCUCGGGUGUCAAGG,0.654
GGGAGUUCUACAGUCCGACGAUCGUCCUGUGCUACACAUCGUAUGUACCGAAUCGGGUUUUUGGGGUUUUUGGGGUUUUUGGAAAGUAUUAUGUUACGCCGUUCGGAUCUGCAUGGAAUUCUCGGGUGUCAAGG,0.0719
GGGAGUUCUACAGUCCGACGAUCUAACUUUAGAGGAGGGUCUGAUGGAUAUGGCAGUGGACGUGGAUUUGGGGAUGGCUAUAAUGGGUAUGGAGGAGGACCUGGAGGUGGCAAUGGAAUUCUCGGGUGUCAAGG,0.26
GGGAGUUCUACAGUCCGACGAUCCUCAAGUCCUGUGCUACACAUCGUAUGUACCGAAUCGGCCGGGGCCGGGGCCGGAAAGUAUUAUGUUACGCCGUUCGGAUCUGCACUUCCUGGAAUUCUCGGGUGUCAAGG,-0.15
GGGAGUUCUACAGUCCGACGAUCUCAAGUCCUGUGCUACACAUCGUAUGUACCGAAUCGGUGGUUUUUUUGGUUUGGAAAGUAUUAUGUUACGCCGUUCGGAUCUGCACUUCCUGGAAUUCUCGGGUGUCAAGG,-0.488
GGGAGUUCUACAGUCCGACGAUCGCAGGAAGUAAAAACAAAUGGAAAUGCUUCGGAUAGUGGCAGGGGUGGGGGUUGCUAAGGAAAGGGUGGGAUGGCAGUGGGUAAAGAGUUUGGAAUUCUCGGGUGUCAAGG,0.21

# Series 2 — target: CCNE2, cyclin fold, Cln2 fusion (human); method: yeast growth competition, sequencing; medium: yeast; notes: weak parent motif; reference: not given; reading: higher = stronger binding
# Starting sequence: HASPIN docking peptide (human); ASLRSVLFGLMNS; partner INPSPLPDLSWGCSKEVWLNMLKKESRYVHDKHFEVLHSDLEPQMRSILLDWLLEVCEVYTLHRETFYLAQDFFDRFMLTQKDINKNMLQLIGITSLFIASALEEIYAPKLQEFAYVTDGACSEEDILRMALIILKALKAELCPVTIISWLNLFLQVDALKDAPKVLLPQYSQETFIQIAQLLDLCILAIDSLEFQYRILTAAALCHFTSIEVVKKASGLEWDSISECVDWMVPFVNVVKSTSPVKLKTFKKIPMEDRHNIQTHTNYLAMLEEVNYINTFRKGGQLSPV
Change,normalised enrichment score
ASLRAVLFGLMNS [S5A],0.711
ASLRSVLAGLMNS [F8A],0.16
ASLRSALFGLMNS [V6A],0.535
ASLASVLFGLMNS [R4A],-0.29
ASLRSVAFGLMNS [L7A],0.584
ASLRSVLFGLANS [M11A],0.918

# Series 3 — method: RNAcompete; form: RNA; medium: in vitro; tested at: 20 nM; notes: 7-mer, probes averaged, single round; reference: mean of 7-mers; reading: higher = stronger binding
# Target: PABPC1L2, full length, GST fusion (mouse, UniProt A0ABA7IW68)
# Residues (chain): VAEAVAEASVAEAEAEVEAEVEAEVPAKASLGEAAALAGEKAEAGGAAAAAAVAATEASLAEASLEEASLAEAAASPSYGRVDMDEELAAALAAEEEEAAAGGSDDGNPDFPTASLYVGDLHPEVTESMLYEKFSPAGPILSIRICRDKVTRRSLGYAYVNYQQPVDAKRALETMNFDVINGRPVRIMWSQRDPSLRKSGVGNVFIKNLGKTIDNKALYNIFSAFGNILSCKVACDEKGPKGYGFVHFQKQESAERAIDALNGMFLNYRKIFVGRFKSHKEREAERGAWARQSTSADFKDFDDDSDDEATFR
Strand,7-mer Z-score
GACCGUG,-0.0609
ACGUAAG,-0.199
UCGAUCA,-0.00108
AUAUAUA,-0.0156
ACCGAAA,0.773
CCUGCCC,-0.423
AGUGCUG,-0.012
GGUGGAA,0.292
GUCCACC,-0.376
GUCCUAG,-0.186
CGAGUCC,-0.407
CUAUUCA,-0.327
CCUUGCU,-0.364
CAUGGAU,0.00436
GCAGCGA,0.00254
UCGGAAU,-0.173
GCUCACC,-0.503
UCUUGGG,-0.0373
GAGUGAG,-0.262
AGGGCUC,0.354
GGAAUCC,-0.0826
GACCAGU,-0.146
GAUAAAG,1.54
AGCUAGG,0.336
UCCUUAC,-0.374

# Series 4 — method: aptamer microarray, sandwich; form: DNA with 2'F-ANA; medium: in vitro; tested at: 200 nM; added: Cy3 exosite-II aptamer, 400 nM; reading: higher = stronger binding; strand: GGTTGGTGTGGTTGG
# Target: Prothrombin, mature alpha-thrombin (F2, Homo sapiens, UniProt P00734)
# Notes: whole 15-mer aptamer, many near background
Modification,mean fluorescence intensity [a.u.]
2'F-ANA at 6 7 9 12 13 14,182
2'F-ANA at 2 4 6 7 9 13,155
2'F-ANA at 1 7 8 12 13,461
2'F-ANA at 3 10 11 15,599
2'F-ANA at 3 4 7 10 11 13 14,195
2'F-ANA at 3 10,609
2'F-ANA at 1 3 6 8 9 11 13,234
2'F-ANA at 1 2 3 4 5 6 7 9 10 11 13 14,50.1
2'F-ANA at 4 6 9 13,167
2'F-ANA at 3 7 8 9 12 13 14 15,598
2'F-ANA at 3 4 5 6 10 12 13 14,119
2'F-ANA at 1 3 4 6 8 9 10 11,63.7
2'F-ANA at 2 3 5 6 8 14,50.5
2'F-ANA at 1 2 5 7 8 9 11 14,45.6
2'F-ANA at 1 2 11 13,113
2'F-ANA at 1 2 7 10 11 12 13 14 15,69.9
2'F-ANA at 2 3 5 8 10,54.8
2'F-ANA at 1 10 11 12 15,71.1
2'F-ANA at 1 2 3 4 5 7 10 11 12 13 14,56
2'F-ANA at 1 2 5 6 7 8 9 14,50.9
2'F-ANA at 2 6 7 8 10 15,121

# Series 5 — method: RNA Bind-n-Seq; form: RNA; medium: in vitro; tested at: 365 nM; reference: no-protein control; reading: higher = stronger binding
# Target: RNA binding protein fox-1 homolog 2, RRM domain, GST-SBP tag (RBFOX2, Homo sapiens, UniProt O43251-10, residues 100-194)
# Notes: natural RNA segment, single round, ends assumed
# Residues (chain): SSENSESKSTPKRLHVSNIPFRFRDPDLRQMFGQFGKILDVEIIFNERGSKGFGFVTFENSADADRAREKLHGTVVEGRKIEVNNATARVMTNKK
Strand,RBNS enrichment (R)
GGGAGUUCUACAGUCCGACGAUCCGCCACUCUGUCCUCCGACUCAGGUGAGGGGGCAGCCCACAGACCUGCUCCUCAGUAGCAGGGCCUGGCCAGGCCCCUGCUGUUCUCAGCCUCAGUUUGCCAUCUAUGAAUGGAAUUCUCGGGUGCCAA,0.173
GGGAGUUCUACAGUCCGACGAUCCCAGCCUGGGUUUCAUCUCCCACAGUAAAGCUAAGUAAGCCCCACAGACCUUACUGCUACUGCUGCUGCCAUUAAUGCUGUGCUCACUAUCUUGUCCAGGAUUUUAAGGAUGGAAUUCUCGGGUGCCAA,0.302
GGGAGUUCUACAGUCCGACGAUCAAGAUAAACCAUUUGGAUAUAUUUGAUUUUGUCAUAACAUUUGUAAAGUAUAUGUUUCUCAUGAGACUGAGGGUUUUAUUUUUAAAAUCCCCUUACAUUUCUAGCACACCUGGAAUUCUCGGGUGCCAA,0.42
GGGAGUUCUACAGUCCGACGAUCGCAAGCGUGUGGAUUUCCAUUGCAGAGCCCCUGUUUCAGGAUGCAAGAGUUUUCCAGCCCAAGGCAAAAUGGAAGAUUGCUGACCCAACCACAAACCCAUCCCUGCGGAGUGGAAUUCUCGGGUGCCAA,0.39
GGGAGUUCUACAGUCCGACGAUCGUAGCUGGAUCACCCAAGUAGUAGCCCUUGAUCUCCUUUCAUGACGGAUAGGCUCAGUUAGUCAGGAAUGUUUACACCUCAGUUAACUUCAGUGAUUGACUUAAAGACUGUGGAAUUCUCGGGUGCCAA,0.311
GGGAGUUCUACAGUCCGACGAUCUGGAAAUUGAGGUCCAUGGGGGAAAUCAAGGAUGCUCAGUUUAAGGUACACUGUUUCCAUGUUAUGUUUCUACACAUUGCUACCUCAGUGCUCCUGGAAACUUAGCUUUUUGGAAUUCUCGGGUGCCAA,0.452
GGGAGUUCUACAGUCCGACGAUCUCCUCAUGGACAUAAAAUACAUUCUUAGUUAUUAUCAUUAUGUCAAACAAGAAUGGCAAGCCUAAGUUUGUGAGGCAUCAUCACAAUUCUGUCAAAAUAAUGUUAUGCUUUGGAAUUCUCGGGUGCCAA,0.633
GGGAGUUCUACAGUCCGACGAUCAGCAGGUCUGACCAGCCCUACACCCUGCCACAGAUCACAGCUUGCCGGGCAAAUGACCCUGCGAAGCCACGGUGCAGCGCCCCCUGCUGGCGAGCAGCGGGCAGACCUCCUGGAAUUCUCGGGUGCCAA,0.531
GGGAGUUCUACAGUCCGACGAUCUGAUCAGUCUAAGAUGGGUGGGGACGUCCUGCCACCUGGGGCAGUCACCUGCCCAGAUCCCAGAAGGACCUCCUGAGCGAUGACUCAAGUGUCUCAGUCCACCUGAGCUGUGGAAUUCUCGGGUGCCAA,0.277
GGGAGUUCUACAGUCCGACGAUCUGCCCUCCUCCAACUUGUUAAAACAUGUUUAUUCUAAAGUUCGAAUGGAUAAAUUUGAGUAUAAAGGUUUUGUUAUAAAACUGUUCUUUAGUGUAAGGCUGCAUUGUGGGUGGAAUUCUCGGGUGCCAA,0.794
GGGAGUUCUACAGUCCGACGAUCGCCAGGGCGUGGCCUCCCCAAGGCUGUGGUGCCCCUUCUGGCUCCCCCAGGUCAGGUCCGCGCCCUUUAAAUUGGCCGCUUGGCUUUUGCCUUUGGUCCUCUUGGACAGAUGGAAUUCUCGGGUGCCAA,0.31
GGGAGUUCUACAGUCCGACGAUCCUGUGCCCGUGUCAGCUCCUGGGGAGACCUUUUACCUGUGAUCGCUCCAUCCGAGUUUCCUCCUUCGUCCCCUGAUGAAGAGCCCCCUGAGAAUUGACAAGGAUGUAGAAUGGAAUUCUCGGGUGCCAA,1.97
